Values quoted from earlier work as cited in several papers.
Protocols differ between the studies behind these lines. ± marks the error that the study gave.
UniProt P00367, sequence (whole entry, looked up): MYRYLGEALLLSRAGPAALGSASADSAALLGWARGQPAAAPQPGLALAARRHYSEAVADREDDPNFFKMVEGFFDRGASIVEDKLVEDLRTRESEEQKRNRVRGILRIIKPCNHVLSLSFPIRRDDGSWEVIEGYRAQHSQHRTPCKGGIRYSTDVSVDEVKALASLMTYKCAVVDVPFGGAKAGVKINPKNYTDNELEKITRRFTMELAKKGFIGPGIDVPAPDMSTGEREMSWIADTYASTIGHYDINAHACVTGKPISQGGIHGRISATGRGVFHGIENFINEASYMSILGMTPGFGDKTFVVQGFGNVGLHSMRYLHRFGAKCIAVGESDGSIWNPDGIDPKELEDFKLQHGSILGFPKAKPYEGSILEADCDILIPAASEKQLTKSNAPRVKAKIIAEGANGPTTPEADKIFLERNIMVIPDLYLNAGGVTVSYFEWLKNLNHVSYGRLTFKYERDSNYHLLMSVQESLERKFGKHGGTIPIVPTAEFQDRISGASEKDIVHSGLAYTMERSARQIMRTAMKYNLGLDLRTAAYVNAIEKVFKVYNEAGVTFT
UniProt O35627, sequence (whole entry, unmodified, looked up): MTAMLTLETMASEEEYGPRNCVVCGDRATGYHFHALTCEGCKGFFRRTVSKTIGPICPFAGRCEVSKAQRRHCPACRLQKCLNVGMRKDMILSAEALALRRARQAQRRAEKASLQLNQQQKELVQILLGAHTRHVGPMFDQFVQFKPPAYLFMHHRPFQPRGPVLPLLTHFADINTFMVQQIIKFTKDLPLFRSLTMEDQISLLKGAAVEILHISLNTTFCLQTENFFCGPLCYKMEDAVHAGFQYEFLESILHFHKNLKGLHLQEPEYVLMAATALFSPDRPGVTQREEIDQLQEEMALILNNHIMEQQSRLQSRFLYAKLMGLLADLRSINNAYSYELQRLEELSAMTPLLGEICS

Substance	tested on	test	system	setting	how to read	quantity	value
C[C@]12CCC[C@@H]1[C@H]1CCc3cc(O)ccc3[C@@H]1CC2 (single isomer, unassigned)	oestrogen receptor beta	binding, competition binding				EC50	18.7 nM
NCCC(=O)N[C@@H](Cc1cnc[nH]1)C(=O)O	PEPT2, rat	uptake, substrate	rat choroid plexus primary cells			Km	34 µM
VDKPPYLPRPRPPROIYNO-NH2 (C-amide)	Escherichia coli BL21(DE3)RIL ribosome	fluorescence polarization	peptide			Kd	450 ± 30 nM
Nc1ncnc2c1ncn2[C@@H]1O[C@H](COP(=O)(O)OP(=O)(O)O)[C@@H](O)[C@H]1O	GLUD1 (Homo sapiens, UniProt P00367)	enzyme activity, allosteric activator		reductive amination		EC50	12000 ± 4500 nM
Cc1ccc([N+](=O)[O-])cc1S(=O)(=O)N(C)/N=C/c1cnc2ccc(Br)cn12	mTORC2	enzyme activity, inhibitor		together with: ATP 10 µM		IC50	160 nM
Nc1nc2c(nc(Sc3ccc(Cl)cc3)n2C2OC3COP(O)(=S)OC3C2O)c(=O)[nH]1 (stereo not shown)	PDE1C	cyclic nucleotide hydrolysis, substrate or inhibitor, isothermal titration calorimetry				Km or Ki	32600 nM
CCOC(=O)C1=C(C)NC(C)=C(C(=O)OC)C1c1cccc([N+](=O)[O-])c1 (stereo not shown)	human KCa3.1				baseline: KCa3.1 IC50 over CaV1.x IC50	selectivity ratio	> 200 fold
N[C@@H](CO)C(=O)O	serine hydroxymethyltransferase (Escherichia coli)	substrate				Km	400 µM
C[C@]12CC[C@@H]3c4ccc(O)cc4CC[C@H]3[C@@H]1CC[C@@H]2OC(=O)c1ccccc1	oestrogen receptor beta	binding, competition binding				EC50	16.8 nM
CC(=O)O[C@H]1C(=O)[C@@]2(C)[C@H]([C@H](OC(=O)c3ccccc3)[C@]3(O)C[C@H](OC(=O)[C@H](O)[C@@H](NC(=O)c4ccccc4)c4ccccc4)C(C)=C1C3(C)C)[C@]1(OC(C)=O)CO[C@@H]1C[C@@H]2O	tubulin	microtubule assembly		concentration not given		critical concentration	4.2 ± 0.2 µM
Cc1cc2nc(NCCCO)n(CC(=O)c3cc(C(C)(C)C)c(O)c(C(C)(C)C)c3)c2cc1C	protein kinase C	enzyme activity and substrate phosphorylation		concentration not given		inhibition	no inhibition
O=C(Nc1n[nH]c2cc(-c3cccc(NS(=O)(=O)c4cccc(F)c4)c3)ccc12)C1CC1	CDKL2 (human)	DiscoverX scanMAX		1 µM	baseline: control	remaining binding	55 to 60%
O=c1[nH]c(=O)c2[nH]c(=O)c(=O)n(C[C@H](O)[C@H](O)[C@H](O)CO)c2[nH]1	Bacillus subtilis lumazine synthase		recombinant β60 capsid	pH 7.0, Tris·HCl buffer, together with: 2 constant, 1 varied		Ks	6.3 ± 0.5 µM
O=C1c2cccc3c2[C@H](CCC3)CN1[C@@H]1CN2CCC1CC2			healthy volunteers, plasma	oral, dose not given, netupitant-palonosetron alone, rifampicin study		CL/F	15.5 L/h
O=P(O)(O)OC[C@H]1O[C@H](OP(=O)(O)OP(=O)(O)O)[C@H](O)[C@@H]1O	HGPRT Trypanosoma cruzi isoform A	substrate, measured: GMP		20 to 215 µM, together with: guanine 70 µM		kcat	32 s⁻¹
Nc1nc2c(nc(Sc3ccc(Cl)cc3)n2C2O[C@@H]3COP(=O)(O)O[C@H]3[C@H]2O)c(=O)[nH]1 (stereo in doubt)	PDE2A	cyclic nucleotide hydrolysis, substrate or inhibitor, isothermal titration calorimetry				Km or Ki	40000 nM
[Sr+2]	BK channel (rat)	channel activation, activator	hippocampal pyramidal cells, young rats		baseline: Ca2+	EC50 relative to Ca2+	19.6
C[C@@]12CC=C3c4ccc(O)cc4CC[C@@H]3[C@H]1CC[C@H]2O	oestrogen receptor alpha	binding, competition binding				EC50	16.3 nM
C[C@]12CC[C@H](O)CC1=CC[C@@H]1[C@@H]2CC[C@]2(C)C(c3cccnc3)=CC[C@@H]12	CYP17A1		castration-resistant prostate cancer patients, post-docetaxel	dose not given		survival increase	3.9 months

Substance	tested on	test	system	setting	how to read	quantity	value
Cc1c(C)c2c(c(C)c1O)CCC(C)(COc1ccc(CC3SC(=O)NC3=O)cc1)O2 (stereo not shown)	bile salt export pump	transport, inhibitor		concentration not given		BSEP inhibition	inhibited
CSC[C@H]1CN(Cc2c[nH]c3c(N)ncnc23)C[C@@H]1O	MTA/SAH nucleosidase, Escherichia coli	inhibitor				Ki	0.005 nM
Nc1nc2[nH]cc(CCc3ccc(C(=O)N[C@@H](CCC(=O)O)C(=O)O)cc3)c2c(=O)[nH]1	thymidylate synthase	enzyme activity, inhibitor			baseline: polyglutamate over monoglutamate	potency increase	130 fold
CC(=O)O[C@H]1Cc2ccccc2N(C(N)=O)c2ccccc21		psychomotor seizure protection	mice	6 Hz 44 mA 3 s stimulation		ED50	15.9 mg/kg
CC(=O)Nc1cccc(-n2c(=O)n(C3CC3)c(=O)c3c(Nc4ccc(I)cc4F)n(C)c(=O)c(C)c32)c1	hiPSC-derived cardiomyocytes	contractility		concentration not given, 72 h, at effective concentration	baseline: baseline	log2 fold change	2.37
O=C(O[C@@H]1Cc2c(O)cc(O)cc2O[C@@H]1c1cc(O)c(O)c(O)c1)c1cc(O)c(O)c(O)c1	proteasome chymotrypsin-like activity		tumour cells			inhibitory concentration	1 to 10 µM
Cc1csc(NC(=O)CSc2ccc(-c3ccccc3)nn2)n1	off-target panel			10 µM		inhibition	> 50%
Oc1cc2c(cc1O)C(c1ccccc1)CNCC2 (stereo not shown)	dopamine D1 receptor (bovine)	agonist	retina	concentration not given		intrinsic activity	58%
CC(C)C1c2cc(C3CC3c3ccc4cc(C(=N)N)ccc4c3)ccc2CCN1C (stereo not shown)	acid-sensing ion channel	ion current		concentration not given, reported in literature		inhibition	inhibited
COc1ccc2c(c1OC)N=C(NC(=O)c1cccnc1)N1CCN=C21	ATM	kinase activity, inhibitor		together with: 10 µM ATP		IC50	610 nM
COc1cc2c(cc1C13CC4CC(CC(C4)C1)C3)[C@H]1CC[C@]3(C)[C@@H](O)CC[C@H]3[C@@H]1CC2	oestrogen receptor beta	binding, competition binding				EC50	> 10000 nM
Oc1cccc(-c2nc(N3CCOCC3)c3oc4ncccc4c3n2)c1	mTORC2	enzyme activity, inhibitor		together with: ATP 10 µM		IC50	125 nM
CCC(C)c1c(O)ccc2c1CC[C@@H]1[C@@H]2CC[C@]2(C)C(=O)CC[C@@H]12 (stereo partly shown)	oestrogen receptor beta	binding, competition binding				EC50	> 10000 nM
CC[C@H](C)[C@H](NC(=O)[C@H](CCCCN)NC(=O)[C@H](Cc1c[nH]cn1)NC(=O)[C@@H](N)CCCNC(=N)N)C(=O)N[C@@H](CC(C)C)C(=O)N[C@@H](Cc1c[nH]cn1)C(=O)N[C@@H](CCCNC(=N)N)C(=O)N[C@@H](CC(C)C)C(=O)N[C@@H](CC(C)C)C(=O)N[C@@H](CCC(N)=O)C(=O)N[C@@H](CCC(=O)O)C(=O)NCC(=O)N[C@@H](CO)C(=O)O	Nuclear receptor subfamily 1 group I member 3, with RXR (Mus musculus, UniProt O35627)	binding, isothermal titration calorimetry		pH 7.2, 25°C		ΔG	-7.2 kcal/mol
C[C@]12CC[C@@H]3c4cc(C56CC7CC(CC(C7)C5)C6)c(O)cc4CC[C@H]3[C@@H]1CC[C@@H]2O	oestrogen receptor beta	binding, competition binding				EC50	> 10000 nM
Cc1cc(C(C)Nc2ccccc2)c2oc(-c3ccncc3)cc(=O)c2c1 (stereo not shown)	mTORC1	enzyme activity, inhibitor		together with: 10 µM ATP		IC50	> 100000 nM
C[C@]12CC(O)[C@@H]3c4ccc(O)cc4CC[C@H]3[C@@H]1CCC2=O (stereo partly shown)	oestrogen receptor alpha	binding, competition binding				EC50	786 nM
CCCCCCCC(=O)OCC(COC(=O)CCCCCCC)OC(=O)CCCCCCC	human FXR alpha	antagonist, Tox21 qHTS or literature		concentration not given		activity call	inactive

A few entries again:
Substance	tested on	test	system	setting	how to read	quantity	value
O=C(Nc1n[nH]c2cc(-c3cccc(NS(=O)(=O)c4cccc(F)c4)c3)ccc12)C1CC1	CDKL2 (human)	DiscoverX scanMAX		1 µM	baseline: control	remaining binding	55 to 60%
Nc1ncnc2c1ncn2[C@@H]1O[C@H](COP(=O)(O)OP(=O)(O)O)[C@@H](O)[C@H]1O	GLUD1 (Homo sapiens, UniProt P00367)	enzyme activity, allosteric activator		reductive amination		EC50	12000 ± 4500 nM
Cc1c(C)c2c(c(C)c1O)CCC(C)(COc1ccc(CC3SC(=O)NC3=O)cc1)O2 (stereo not shown)	bile salt export pump	transport, inhibitor		concentration not given		BSEP inhibition	inhibited
